Measurements collected from several papers.
Lines come from different studies, so protocols differ. Values joined by “and” are separate records of one study, mostly repeats; a detail may differ. ± gives the spread as reported.
T1: RNA A16C/A37U, hybrid riboswitch; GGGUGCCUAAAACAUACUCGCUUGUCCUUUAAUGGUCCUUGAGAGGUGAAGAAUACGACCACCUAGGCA
Sequence of UniProt P51575 (whole entry, unmodified, looked up): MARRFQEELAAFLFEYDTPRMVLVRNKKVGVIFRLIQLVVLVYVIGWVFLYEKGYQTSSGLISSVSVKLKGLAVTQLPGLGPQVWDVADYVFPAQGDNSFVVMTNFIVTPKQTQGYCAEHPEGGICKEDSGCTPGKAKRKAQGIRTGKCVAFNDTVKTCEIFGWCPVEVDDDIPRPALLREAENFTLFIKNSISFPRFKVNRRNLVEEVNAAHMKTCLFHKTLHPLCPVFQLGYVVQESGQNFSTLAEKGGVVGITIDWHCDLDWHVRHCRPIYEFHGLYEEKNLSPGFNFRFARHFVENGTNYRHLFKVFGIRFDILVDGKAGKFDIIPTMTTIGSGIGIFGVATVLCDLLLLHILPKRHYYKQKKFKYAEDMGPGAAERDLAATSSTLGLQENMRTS
Sequence of UniProt Q64663 (whole entry, unmodified, looked up): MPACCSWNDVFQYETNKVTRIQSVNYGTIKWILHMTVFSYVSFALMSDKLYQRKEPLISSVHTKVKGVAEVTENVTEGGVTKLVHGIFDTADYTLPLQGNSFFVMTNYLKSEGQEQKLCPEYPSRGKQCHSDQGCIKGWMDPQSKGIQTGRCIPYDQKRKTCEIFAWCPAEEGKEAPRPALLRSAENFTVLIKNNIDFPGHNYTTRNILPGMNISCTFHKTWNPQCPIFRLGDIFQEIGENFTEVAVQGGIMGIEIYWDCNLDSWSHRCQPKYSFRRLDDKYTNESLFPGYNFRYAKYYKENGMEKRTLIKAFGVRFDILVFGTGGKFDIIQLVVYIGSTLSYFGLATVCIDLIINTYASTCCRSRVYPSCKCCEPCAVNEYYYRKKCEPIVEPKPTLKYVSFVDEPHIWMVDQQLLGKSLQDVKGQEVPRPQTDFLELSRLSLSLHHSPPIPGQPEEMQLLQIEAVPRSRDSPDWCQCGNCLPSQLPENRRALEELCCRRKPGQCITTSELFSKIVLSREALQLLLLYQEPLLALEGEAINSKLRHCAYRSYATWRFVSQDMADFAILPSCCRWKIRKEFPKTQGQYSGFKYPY
Sequence of UniProt Q9UQD0 (whole entry, looked up): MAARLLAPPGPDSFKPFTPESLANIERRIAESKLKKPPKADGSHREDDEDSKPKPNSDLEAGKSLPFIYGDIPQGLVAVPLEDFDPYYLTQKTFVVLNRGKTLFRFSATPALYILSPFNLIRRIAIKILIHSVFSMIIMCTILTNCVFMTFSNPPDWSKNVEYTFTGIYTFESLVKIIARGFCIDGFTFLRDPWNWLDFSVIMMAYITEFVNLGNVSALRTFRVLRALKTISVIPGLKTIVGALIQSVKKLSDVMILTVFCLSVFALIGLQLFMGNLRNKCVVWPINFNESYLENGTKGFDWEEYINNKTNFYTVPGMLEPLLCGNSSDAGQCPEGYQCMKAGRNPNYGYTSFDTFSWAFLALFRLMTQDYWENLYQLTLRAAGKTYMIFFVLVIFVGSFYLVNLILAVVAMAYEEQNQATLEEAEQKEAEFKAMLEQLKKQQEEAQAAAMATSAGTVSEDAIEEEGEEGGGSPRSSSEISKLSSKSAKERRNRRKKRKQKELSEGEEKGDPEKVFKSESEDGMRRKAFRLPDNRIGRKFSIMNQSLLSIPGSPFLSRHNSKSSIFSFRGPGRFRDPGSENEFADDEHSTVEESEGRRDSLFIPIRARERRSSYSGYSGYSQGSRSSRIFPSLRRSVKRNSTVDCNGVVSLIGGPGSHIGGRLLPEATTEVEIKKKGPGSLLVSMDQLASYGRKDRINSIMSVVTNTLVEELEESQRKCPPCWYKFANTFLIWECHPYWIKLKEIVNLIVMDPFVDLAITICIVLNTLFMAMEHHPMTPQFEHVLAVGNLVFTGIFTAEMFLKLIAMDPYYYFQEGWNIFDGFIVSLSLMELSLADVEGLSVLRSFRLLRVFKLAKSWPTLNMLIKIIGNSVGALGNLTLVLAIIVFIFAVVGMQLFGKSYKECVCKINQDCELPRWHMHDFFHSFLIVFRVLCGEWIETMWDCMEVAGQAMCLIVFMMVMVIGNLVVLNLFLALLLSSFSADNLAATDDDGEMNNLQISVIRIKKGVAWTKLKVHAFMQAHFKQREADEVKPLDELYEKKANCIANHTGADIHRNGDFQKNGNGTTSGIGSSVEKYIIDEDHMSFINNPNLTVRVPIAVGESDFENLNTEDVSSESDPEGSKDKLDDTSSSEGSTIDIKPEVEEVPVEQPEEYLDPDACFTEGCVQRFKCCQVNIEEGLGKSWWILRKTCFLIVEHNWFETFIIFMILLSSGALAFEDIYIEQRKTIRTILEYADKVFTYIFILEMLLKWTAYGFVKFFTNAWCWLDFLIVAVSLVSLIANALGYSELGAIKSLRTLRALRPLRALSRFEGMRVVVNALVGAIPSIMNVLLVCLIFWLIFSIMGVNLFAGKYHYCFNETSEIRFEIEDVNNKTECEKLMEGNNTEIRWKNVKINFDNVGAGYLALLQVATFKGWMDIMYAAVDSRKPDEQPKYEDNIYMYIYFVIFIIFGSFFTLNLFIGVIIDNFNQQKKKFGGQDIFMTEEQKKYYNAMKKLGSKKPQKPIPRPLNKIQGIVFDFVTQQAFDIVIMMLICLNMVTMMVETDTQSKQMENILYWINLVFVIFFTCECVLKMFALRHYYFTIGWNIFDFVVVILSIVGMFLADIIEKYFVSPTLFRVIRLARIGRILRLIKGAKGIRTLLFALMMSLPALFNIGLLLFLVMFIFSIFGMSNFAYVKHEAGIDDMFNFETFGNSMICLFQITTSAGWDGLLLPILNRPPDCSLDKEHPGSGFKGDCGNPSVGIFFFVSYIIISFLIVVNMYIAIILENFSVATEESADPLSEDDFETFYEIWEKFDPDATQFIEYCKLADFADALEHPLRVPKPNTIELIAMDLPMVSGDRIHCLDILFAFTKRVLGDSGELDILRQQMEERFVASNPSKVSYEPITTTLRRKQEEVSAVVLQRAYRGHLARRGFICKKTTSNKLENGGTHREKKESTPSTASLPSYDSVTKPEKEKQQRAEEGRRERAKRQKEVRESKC
Sequence of UniProt P22736 (whole entry, looked up): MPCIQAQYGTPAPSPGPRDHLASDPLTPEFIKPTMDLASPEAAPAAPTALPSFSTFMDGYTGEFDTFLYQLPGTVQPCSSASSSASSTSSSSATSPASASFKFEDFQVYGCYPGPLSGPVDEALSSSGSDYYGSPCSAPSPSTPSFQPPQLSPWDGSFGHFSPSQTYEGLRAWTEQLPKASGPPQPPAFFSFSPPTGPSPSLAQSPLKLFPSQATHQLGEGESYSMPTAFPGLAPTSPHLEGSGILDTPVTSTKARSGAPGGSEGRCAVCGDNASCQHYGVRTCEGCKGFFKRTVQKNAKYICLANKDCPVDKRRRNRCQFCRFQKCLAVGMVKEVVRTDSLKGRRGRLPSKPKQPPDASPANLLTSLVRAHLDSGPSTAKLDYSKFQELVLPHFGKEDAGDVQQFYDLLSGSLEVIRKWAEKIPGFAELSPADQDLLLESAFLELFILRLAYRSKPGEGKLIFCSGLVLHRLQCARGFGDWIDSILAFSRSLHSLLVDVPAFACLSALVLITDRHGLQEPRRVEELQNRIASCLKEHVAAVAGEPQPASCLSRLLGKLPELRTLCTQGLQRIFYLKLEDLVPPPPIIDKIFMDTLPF
Sequence of UniProt P47898 (whole entry, looked up): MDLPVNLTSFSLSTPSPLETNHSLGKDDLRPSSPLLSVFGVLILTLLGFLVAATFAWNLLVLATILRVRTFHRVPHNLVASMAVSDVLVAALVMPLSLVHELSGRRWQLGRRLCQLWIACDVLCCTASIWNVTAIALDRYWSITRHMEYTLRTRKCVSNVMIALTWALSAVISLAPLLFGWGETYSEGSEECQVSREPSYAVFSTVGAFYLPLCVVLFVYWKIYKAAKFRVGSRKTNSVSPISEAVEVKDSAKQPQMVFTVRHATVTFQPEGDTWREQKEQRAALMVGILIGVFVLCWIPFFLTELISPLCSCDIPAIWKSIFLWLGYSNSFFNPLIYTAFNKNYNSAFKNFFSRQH
Sequence of UniProt Q53HV7 (whole entry, looked up): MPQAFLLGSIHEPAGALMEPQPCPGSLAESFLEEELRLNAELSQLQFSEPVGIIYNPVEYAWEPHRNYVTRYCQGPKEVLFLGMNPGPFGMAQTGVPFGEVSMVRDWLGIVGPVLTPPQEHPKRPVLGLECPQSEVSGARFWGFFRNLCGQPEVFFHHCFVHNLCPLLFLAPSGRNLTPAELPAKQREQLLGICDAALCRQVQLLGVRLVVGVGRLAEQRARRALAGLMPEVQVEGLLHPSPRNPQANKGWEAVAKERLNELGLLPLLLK
Sequence of UniProt Q5AHG6 (whole entry, looked up): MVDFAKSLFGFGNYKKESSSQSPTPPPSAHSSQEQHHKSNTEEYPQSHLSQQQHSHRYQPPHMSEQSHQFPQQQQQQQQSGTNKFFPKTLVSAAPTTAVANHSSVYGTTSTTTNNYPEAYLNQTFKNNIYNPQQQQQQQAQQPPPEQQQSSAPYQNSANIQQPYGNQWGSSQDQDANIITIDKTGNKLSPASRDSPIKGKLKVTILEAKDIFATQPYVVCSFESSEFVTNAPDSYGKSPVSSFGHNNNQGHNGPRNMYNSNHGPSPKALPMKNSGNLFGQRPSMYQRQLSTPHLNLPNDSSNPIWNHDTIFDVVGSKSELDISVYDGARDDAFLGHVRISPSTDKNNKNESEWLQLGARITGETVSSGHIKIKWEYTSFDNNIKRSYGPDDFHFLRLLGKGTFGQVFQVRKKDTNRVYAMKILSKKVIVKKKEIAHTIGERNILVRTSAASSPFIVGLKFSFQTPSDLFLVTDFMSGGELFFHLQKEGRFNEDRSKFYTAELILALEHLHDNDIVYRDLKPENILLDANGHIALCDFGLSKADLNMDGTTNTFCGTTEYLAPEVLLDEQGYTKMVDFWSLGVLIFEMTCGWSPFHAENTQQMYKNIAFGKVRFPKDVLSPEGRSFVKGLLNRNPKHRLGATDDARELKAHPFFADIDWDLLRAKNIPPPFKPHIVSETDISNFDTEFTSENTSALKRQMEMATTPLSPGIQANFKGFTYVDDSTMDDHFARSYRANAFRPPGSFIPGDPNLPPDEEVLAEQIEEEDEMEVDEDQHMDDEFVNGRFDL

Compound | target | assay | test system | setting | how to read | endpoint | value
CCCCCCCC(=O)c1c(O)cc(O)cc1CC(=O)OCC | Nuclear receptor subfamily 4 group A member 1 (NR4A1, Homo sapiens, UniProt P22736) | reporter gene, Gal4 hybrid reporter |  | 10 µM | relative to: vehicle | activation | 0.87 fold
O=C(NO)c1ccc(CN2CCCCc3ccccc32)c(F)c1 | HTR5A (Homo sapiens, UniProt P47898) | radioligand binding, PDSP radioligand binding |  | 10 µM |  | inhibition | 1.54%
Oc1ccccc1-c1n[nH]cc1-c1ccnc2ccccc12 | Serine/threonine-protein kinase SCH9 (SCH9, Candida albicans, UniProt Q5AHG6) | kinase binding, MIB/MS competition | Candida albicans lysate | 1 µM | relative to: DMSO, negative = stronger binding | log2 fold change | 0.04
Nc1ncnc2c1ncn2[C@@H]1O[C@H](COP(=O)(O)OP(=O)(O)OP(=O)(O)O)[C@@H](O)[C@H]1O | DNA-directed RNA polymerase subunit beta' / DNA-directed RNA polymerase subunit beta (rpoC/rpoB, Escherichia coli, UniProt P0A8T7+P0A8V2) | transcription elongation, rapid chemical quench-flow |  | slow complex fraction, i+2→i+1, added: NTP 200 µM |  | slow nucleotide addition rate constant | 2.8 ± 1 s⁻¹
CC1=C(/C=C/C(C)=C/C=C/C(C)=C/C=O)C(C)(C)CCC1 | Rhodopsin, F273A/S144C (RHO, Bos taurus, UniProt P02699, F273A/S144F) | retinal entry, Alexa488 FRET | lipid bicelles | 28 °C, F273A mutant | relative to: wild-type rhodopsin | relative kon | 0.466 ± 0.074
CCOC(=O)c1c(NC(=O)CNC(C)C)sc2c1CCCCC2 | SCN8A (Homo sapiens, UniProt Q9UQD0) | sodium current, whole-cell voltage clamp | HEK cells | 20 µM |  | peak current density | -34.9 pA/pF
COc1cc2ncnc(Nc3ccc(Oc4ccccc4)cc3)c2cc1OC | SMUG1 (Homo sapiens, UniProt Q53HV7) | enzyme activity, activator, fluorescence |  | 20 µM | relative to: control | activity | 400 ± 100%
CN(C)[C@@H]1C(=O)C(C(N)=O)=C(O)[C@@]2(O)C(=O)C3=C(O)c4c(O)cccc4[C@@](C)(O)[C@H]3C[C@@H]12 | T1, RNA A16C/A37U, hybrid riboswitch | in-line probing |  | 72 h, Mg2+ 10 mM, K+ 100 mM |  | binding | binds
Nc1ncnc2c1ncn2[C@@H]1O[C@H](COP(=O)(O)CP(=O)(O)OP(=O)(O)O)[C@@H](O)[C@H]1O | P2X purinoceptor 1 (P2RX1, Homo sapiens, UniProt P51575, K140A) | saturation binding | HEK293 | 1 nM |  | specific binding | 108 CCPM and 324 CCPM and 134 CCPM
CCCC[C@@H]1NC(=O)[C@H](Cc2ccc(O)cc2)NC(=O)[C@@H]2CCCN2C(=O)[C@H](CC(=O)O)NC(=O)[C@H](C)NC(=O)[C@H](Cc2ccccc2)NC(=O)[C@@H]2CSCCC(=O)N3CN(CN(C3)C(=O)CCSC[C@@H](C(=O)N[C@@H](C)C(N)=O)NC1=O)C(=O)CCSC[C@H](NC(C)=O)C(=O)N[C@@H](CC(C)(C)C)C(=O)N1CCC[C@H]1C(=O)N[C@@H](CCC(=O)O)C(=O)N[C@H](CCCCNC(=O)CCc1cn(CCOCCOCCOCCOCCOCCC(=O)N[C@H]3CSCCC(=O)N4CN5CN(C4)C(=O)CCSC[C@H](NC(=O)[C@@H](CCC(=O)O)NC(=O)[C@H](Cc4cccc6ccccc46)NC(=O)[C@@H]4CCCN4C3=O)C(=O)N[C@@H](CC(C)C)C(=O)N[C@@H](CCCCNC(=N)N)C(=O)N[C@@H](CC(=O)O)C(=O)N[C@@H](Cc3c[nH]c4ccccc34)C(=O)N[C@@H](CO)C(=O)N[C@@H]([C@@H](C)O)C(=O)N3CCC[C@H]3C(=O)N3C[C@H](O)C[C@H]3C(=O)N[C@@H](Cc3c[nH]c4ccccc34)C(=O)N[C@H](C(N)=O)CSCCC5=O)nn1)C(=O)N1CCC[C@H]1C(=O)N[C@@H](Cc1ccc(O)cc1)C(=O)N2 | Tumor necrosis factor receptor superfamily member 9/Nectin-4 (Homo sapiens, UniProt Q07011+Q96NY8) | reporter gene, agonist | HT-1376 coculture with reporter cells |  | relative to: background | Emax | 41 fold
O=C(O)C1CCCNC1 (stereo not drawn) | SLC6A6 (Homo sapiens, UniProt P31641, Y138A) | binding, microscale thermophoresis |  | 250 µM, room temperature, added: 50 nM labelled protein | higher = more binding | normalised MST signal | 1.03
Nc1ncnc2c1ncn2[C@@H]1O[C@H](COP(=O)(O)OP(=O)(O)OP(=O)(O)O)[C@@H](O)[C@H]1O | P2X purinoceptor 7 (P2rx7, Rattus norvegicus, UniProt Q64663, I214A/Q143A) | ion current, agonist, two-electrode voltage clamp | Xenopus laevis oocytes | 2700 µM | relative to: highest concentration response | normalized current | 1 and 0.988

A few entries again:
Compound | target | assay | test system | setting | how to read | endpoint | value
O=C(NO)c1ccc(CN2CCCCc3ccccc32)c(F)c1 | HTR5A (Homo sapiens, UniProt P47898) | radioligand binding, PDSP radioligand binding |  | 10 µM |  | inhibition | 1.54%
Nc1ncnc2c1ncn2[C@@H]1O[C@H](COP(=O)(O)OP(=O)(O)OP(=O)(O)O)[C@@H](O)[C@H]1O | DNA-directed RNA polymerase subunit beta' / DNA-directed RNA polymerase subunit beta (rpoC/rpoB, Escherichia coli, UniProt P0A8T7+P0A8V2) | transcription elongation, rapid chemical quench-flow |  | slow complex fraction, i+2→i+1, added: NTP 200 µM |  | slow nucleotide addition rate constant | 2.8 ± 1 s⁻¹
